# Assay results pooled from the literature.
# Compare with care: the assays were run in different laboratories. ± marks the error that the study gave.
SMILES,assay,test system,setting,endpoint,value
O=C(c1cccnc1-c1ccncc1)N1CCC(O)(Cc2ccccc2)CC1,population PK model,healthy adults,"oral, 300 mg",apparent peripheral volume,356 L
CC#CC(=O)N1CCC[C@H]1c1nc(-c2ccc(C(=O)Nc3ccccn3)cc2)c2c(N)nccn12,population pharmacokinetics,healthy subjects,"oral, dose not given",apparent peripheral volume (Vp/F),49 L
Cc1c(C(=O)O)ccc2c3n(nc12)[C@@H]1[C@H](C3)N(CC2CC2)[C@@]2(C(=O)Nc3cc(Cl)ccc32)[C@H]1c1cccc(Cl)c1F,,"cancer patients, plasma","oral, 45 mg day 1 every 3 weeks, geometric mean, cycle 1",apparent clearance CL/F,7.34 mL/min
CNC(=O)c1c(C)oc2cc(Oc3ncnc4cc(OC)c(OC)cc34)ccc12,final population PK model,cancer patient weighing sample A kg,"oral, dose not given, no proton pump inhibitor",apparent volume of distribution,50.4 L
O=C(O)c1cccc(C(=O)O)c1,,betaine/propylene glycol DES-water,DES mass fraction 0.80,apparent dissolution enthalpy,4.84 kcal/mol
N[C@@H](CC(=O)N1CCc2c(nc(C(F)(F)F)nc2C(F)(F)F)C1)CN1CC(F)(F)CCC1=O,,"healthy Korean adults, fasted, plasma","oral, 50 mg single dose, fixed-dose combination tablet, with: enavogliflozin 0.3 mg",apparent volume Vd/F,981 ± 228 L
CCCCOCCOc1ccc(-c2ccc3c(c2)/C=C(/C(=O)Nc2ccc([S@@+]([O-])Cc4cncn4CCC)cc2)CCCN3CC(C)C)cc1,,"mild hepatic impairment patients, plasma","150 mg, day 1, single dose, geometric mean",apparent clearance CL/F,452 mL/min
OC[C@H]1O[C@@H](c2cc(Cc3ccc(C4CC4)cc3)c(Cl)c3c2CCO3)[C@H](O)[C@@H](O)[C@@H]1O,,"healthy Korean adults, fasted, plasma","oral, 0.3 mg single dose, separate tablets, with: co-administered drug 50 mg",apparent clearance CL/F,150 ± 45.7 mL/min
CC1(C)CCC(CN2CCN(c3ccc(C(=O)NS(=O)(=O)c4ccc(NCC5CCOCC5)c([N+](=O)[O-])c4)c(Oc4cnc5[nH]ccc5c4)c3)CC2)=C(c2ccc(Cl)cc2)C1,final population PK model,"AML patients, plasma","oral, dose not given",apparent central volume (V2/F),110 L

# For quick reference, copied from above:
SMILES,assay,test system,setting,endpoint,value
Cc1c(C(=O)O)ccc2c3n(nc12)[C@@H]1[C@H](C3)N(CC2CC2)[C@@]2(C(=O)Nc3cc(Cl)ccc32)[C@H]1c1cccc(Cl)c1F,,"cancer patients, plasma","oral, 45 mg day 1 every 3 weeks, geometric mean, cycle 1",apparent clearance CL/F,7.34 mL/min
